Results of several laboratories.
Each numbered part is a random draw from the data of one study; scales do not carry over between parts. Substitutions count along the parent as printed.

Sample 1 — technique: DHFR PCA, deep sequencing; medium: yeast; with: (+)-ABA 0.39 µM; baseline: wild-type fitted maximum; direction: higher = stronger binding
Target: ABI1, truncated, D143A, DHFR fusion (Arabidopsis thaliana)
Notes: methotrexate growth selection, single substitutions
Starting sequence: PYL1, truncated, DHFR fusion (Arabidopsis thaliana); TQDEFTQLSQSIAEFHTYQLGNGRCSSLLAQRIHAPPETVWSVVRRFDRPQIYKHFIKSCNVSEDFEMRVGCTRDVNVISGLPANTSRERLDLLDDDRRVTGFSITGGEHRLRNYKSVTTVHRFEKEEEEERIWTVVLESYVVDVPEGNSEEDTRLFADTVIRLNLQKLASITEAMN
Change | relative binding score [%]
T101S | 3.49
L169G | -9.72
N22Y | 35
V44P | -7.61
K116W | -3.68
T6D | 53
N61E | 62
Q19A | 39.1
D144L | -28.6
R155M | 19.6
S11V | 52.6
F5Y | 40.1
G23P | 3.94
S42D | 32.3

Sample 2 — technique: RNA Bind-n-Seq; form: RNA; medium: in vitro; concentration: 200 nM; notes: whole 134-nt RNA, ends assumed; with: 150 mM KCl; baseline: input library; direction: higher = stronger binding
Target: Ras GTPase-activating protein-binding protein 1, full length (G3BP1, Homo sapiens, UniProt Q13283)
Chain of UniProt Q13283 (whole entry, looked up): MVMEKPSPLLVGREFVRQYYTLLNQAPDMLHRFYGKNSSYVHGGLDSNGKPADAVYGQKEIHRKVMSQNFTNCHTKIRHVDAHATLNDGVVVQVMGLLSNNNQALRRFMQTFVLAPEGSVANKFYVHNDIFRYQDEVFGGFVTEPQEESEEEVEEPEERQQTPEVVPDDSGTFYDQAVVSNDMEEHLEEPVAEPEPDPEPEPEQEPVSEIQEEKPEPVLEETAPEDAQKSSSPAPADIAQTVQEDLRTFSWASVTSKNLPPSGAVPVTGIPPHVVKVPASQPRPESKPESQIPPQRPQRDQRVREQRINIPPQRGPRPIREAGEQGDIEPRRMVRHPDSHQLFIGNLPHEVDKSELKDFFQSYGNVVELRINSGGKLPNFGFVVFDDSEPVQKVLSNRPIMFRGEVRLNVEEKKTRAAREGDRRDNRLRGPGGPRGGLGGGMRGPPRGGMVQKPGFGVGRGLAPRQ
All sequences stand within: GGGAGUUCUACAGUCCGACGAUC … UGGAAUUCUCGGGUGUCAAGG
Oligonucleotide | log2 enrichment
UUCAAAACAGAAUCCUUCCAGUCCUCUUCAGCGUUUAAUUCCAGGCUCAAACUUGGACAGUGAACCCAGAAUUCAAACAGAUAUACUAAA | 0.464
AAGUCCUGUGCUACACAUCGUAUGUACCGAAUCGGGGAAAGGGGAAAGGGAAAGGGAAAGUAUUAUGUUACGCCGUUCGGAUCUGCACUU | 0.312
CAAGUCCUGUGCUACACAUCGUAUGUACCGAAUCGGUUUUGGUUUUGGGUUUUGGGAAAGUAUUAUGUUACGCCGUUCGGAUCUGCACUU | -1.27
AAGUCCUGUGCUACACAUCGUAUGUACCGAAUCGGGAAAGGGAAAGGGGAAAGGGGAAAGUAUUAUGUUACGCCGUUCGGAUCUGCACUU | 0.356
ACCAUGCAGGUGGGCAUCUUUGGGAAGUGGGGCAAGGGGGGGAUAGGGAGGGGGGUAACACUUUGAGAACAGGUGGUCCCAGGUCGUUUC | 1.23
AAGUCCUGUGCUACACAUCGUAUGUACCGAAUCGGGGUUUGGGGAAAGGGGUGGGGAAAGUAUUAUGUUACGCCGUUCGGAUCUGCACUU | 0.928
GUGCUACACAUCGUAUGUACCGAAUCGGGGUUUUUUUGGGGUUUUUUUGGGGUUUUUUUGGGGAAAGUAUUAUGUUACGCCGUUCGGAUC | -0.452
UGCUGAAGCUCACACCCGUGGACCACCCAGACUGCCUGCCGCUACAGGAUGCCCUCCGCAUCUCCCAGGACUUCUUUCCGGCAUCAGUGU | -0.334
GUCCUGUGCUACACAUCGUAUGUACCGAAUCGGGUUUUUUUGGGUGGGAAAAAAAGGGAAAGUAUUAUGUUACGCCGUUCGGAUCUGCAC | -0.361

Sample 3 — technique: protein binding microarray; form: double-stranded DNA, one strand shown; medium: in vitro; concentration: not given; baseline: not given; direction: higher = stronger binding
Target: Histone acetyltransferase KAT6A, both winged helices, GST fusion (KAT6A, Homo sapiens, UniProt Q92794, residues 1-181)
Notes: 8-mer, flanks averaged, mean of 2 arrays, mostly near background
Construct (chain): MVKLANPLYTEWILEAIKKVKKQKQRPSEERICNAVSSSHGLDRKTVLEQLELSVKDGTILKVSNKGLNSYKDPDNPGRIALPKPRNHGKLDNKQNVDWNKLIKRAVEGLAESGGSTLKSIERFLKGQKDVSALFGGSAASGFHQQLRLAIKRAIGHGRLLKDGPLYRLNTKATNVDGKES
Oligonucleotide | E-score
AGTGTTAC | -0.0925
AAACCATC | 0.0335
GTGATAAA | 0.127
CCTACCAA | -0.233
ATACCCTC | -0.0853
ATGCTCAG | -0.16
ACTGAGGC | -0.00266
GATAGATA | -0.0858
GCACGAAA | -0.0333
CACATGTA | 0.0113
GAAGACGC | 0.0992
ACTGATGG | -0.0635
CAACTCTC | -0.164
CTCAGTTA | 0.0256
AACTTACA | -0.117
AAAGAAAA | -0.0354
CGACCAAC | 0.0519
TAACATGA | -0.049
CCGTAGGA | 0.107
CGACAGAC | -0.023
ACGTAGAT | -0.0481
AGCGGAGG | 0.152
GTATGAGA | -0.0569
GGATTTGA | -0.0374
ATCAGGCA | -0.207

Sample 4 — technique: protein-binding microarray; form: double-stranded DNA, one strand shown; medium: in vitro; concentration: 250 nM; notes: 60-bp whole probe; with: salmon DNA 0.4 mg/ml; baseline: random background probes; direction: higher = stronger binding; all sequences stand within: GCCTAGCAC … GTCTTGATTCGCTTGACGCTGCTG
Target: Interferon regulatory factor 7, full length, phosphomimetic (IRF7, Homo sapiens, UniProt Q92985, residues 1-503, S101K/S471D/S472D/S475D/S476D/S477D/S483D/S484D/S487D)
Construct (chain): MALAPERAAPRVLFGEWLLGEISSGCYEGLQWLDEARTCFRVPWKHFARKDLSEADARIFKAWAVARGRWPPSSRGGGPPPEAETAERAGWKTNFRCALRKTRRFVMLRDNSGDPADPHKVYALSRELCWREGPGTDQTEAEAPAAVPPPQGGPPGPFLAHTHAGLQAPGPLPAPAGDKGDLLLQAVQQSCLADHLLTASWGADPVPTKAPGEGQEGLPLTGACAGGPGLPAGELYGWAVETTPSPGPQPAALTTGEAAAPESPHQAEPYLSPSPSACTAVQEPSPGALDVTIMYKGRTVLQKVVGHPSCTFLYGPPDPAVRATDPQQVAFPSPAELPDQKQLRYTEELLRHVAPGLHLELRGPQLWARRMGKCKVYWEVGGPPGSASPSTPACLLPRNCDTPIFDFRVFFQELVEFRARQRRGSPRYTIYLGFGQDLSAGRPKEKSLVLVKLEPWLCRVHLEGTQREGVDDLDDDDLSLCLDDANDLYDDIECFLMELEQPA
Oligonucleotide | log fluorescence
TTAGGTATTCTACTGCTTTAGTGCTAG | -0.153 z-score
GACGGTTCCGGTTTCGGGAGGTGCTAG | 6.42 z-score
TCTATAATGGATATATATCAGTGCTAG | 0.00892 z-score
TTCTCTTTCACTGCTGCCCTGTGCTAG | 1.04 z-score
GAGGATTTCGGGTATCGAGACGTGCTA | 0.36 z-score
TTAGGTTTGCTTCTCCTTTAGTGCTAG | 0.997 z-score
TCAACCCTCCCTCTGTAAGTGTGCTAG | -0.153 z-score
GACGGCATCCTTCTCCTGACGTGCTAG | -0.581 z-score
GACGGTTTCGGACTGGGCACGTGCTAG | 3.48 z-score
TAAGAACTGAGTATCGATTAGTGCTAG | 0.971 z-score
GAGGGTTTCGGTTTCGGGACGTGCTAG | 13.2 z-score
TTAGGTTTCGGGTATCGGTGAGTGCTA | 6.79 z-score
GACCGTTTCGGGTTTCGGGACGTGCTA | 7.23 z-score
TTAGGTCTTGGTATCGGTTAGTGCTAG | 1.34 z-score
AGTATGTTCCCTATTTAAGGGTGCTAG | 2.73 z-score
TCATATTTAAGCTCCTATACTGTGCTA | 0.362 z-score
TCATTTATCAATCATTTTACTGTGCTA | 1.51 z-score
GACGGTCTCCCTATCCTGACGTGCTAG | 0.137 z-score
TCACATTTTGGTTTTCTACTGTGCTAG | 1.19 z-score

Repeated from above (sample 3):
Oligonucleotide | E-score
GCACGAAA | -0.0333
CACATGTA | 0.0113
GAAGACGC | 0.0992
ACTGATGG | -0.0635
CAACTCTC | -0.164
CTCAGTTA | 0.0256
AACTTACA | -0.117
AAAGAAAA | -0.0354
CGACCAAC | 0.0519
TAACATGA | -0.049
CCGTAGGA | 0.107
